# Measured values collected from several papers.
# ± marks the error that the study gave.
SMILES,test,system,setting,scale,measurement,value
COc1ncccc1-c1cnn2ccc(N3CCN(C(=O)OC(C)C)CC3)nc12,,"mouse nerve ligation model, brain","oral, 3 mg/kg, 120 min after last dose, repeat dosing day 5",,drug concentration,1300 nM
O=c1nc(NO)ccn1[C@@H]1O[C@H](CO)[C@@H](O)[C@H]1O,,rat fetus dialysate,"1000 ng/mL, 6 h, 10 °C, high QC concentration, with: molnupiravir",,autosampler stability,99.2 ± 3.95%
O=c1cc(-c2ccc(O)c(O)c2)oc2cc(O)cc(O)c12,,"male Sprague-Dawley rats, obese, urine","oral, 100 mg/kg of neohesperidin, 48 h",,cumulative urinary excretion,460 ± 23.4 ng
CCCCCCCC(=O)N[C@@H](CCCCN)C(=O)N[C@@H](CCCCN)C(=O)N[C@@H](C)C(=O)N[C@@H](CC(C)C)C(=O)N[C@@H](CCCCN)C(=O)N[C@@H](CC(C)C)C(=O)N[C@@H](C)C(=O)N[C@@H](CCCCN)C(=O)N[C@@H](CCCCN)C(=O)N1CCC[C@H]1C(=O)N[C@@H](CC(C)C)C(=O)N[C@@H](CCCCN)C(=O)N[C@@H](CC(C)C)C(=O)N[C@@H](CC(C)C)C(=O)N[C@@H](CCCCN)C(N)=O,,"mouse ICR CD1 female, whole blood","intravenous bolus, 10 mg/kg",,volume of distribution,0.926 ± 0.637 L/kg
COC[C@@H](CC(C)C)NC(=O)c1ccc(C)c(C)c1,,"Hsd:ICR (CD-1) mouse, male, bone marrow","oral, 1352 mg/kg, 48 h",,PCE to total erythrocyte ratio,0.528
c1cc(-c2ccc3ncnc(Nc4ncco4)c3c2)cc(N2C[C@H]3C[C@@H]2CO3)c1,,0.1 M phosphate buffer,"pH 7.4, 25 °C",,thermodynamic solubility,6 µM
Cc1cccc(Cn2nc(C3CC3)c3c(NC(=O)c4cnc5cc(OCCN6CCN(C)CC6)ccn45)cccc32)n1,item: AST increased,human advanced solid tumours,"oral, 400 mg, all-causality",,adverse events incidence,57.1%
CN(C(=O)n1cnc(-c2ccc[n+]([O-])c2)c1)C1CCCCC1,,"Wistar rat, cerebellum","oral, 10 mg/kg, 1 h, single dose",,concentration,315 ± 39.1 ng/g
Cn1c(-c2ccc(C(N)=O)cc2F)nnc1C(C)(C)Oc1c(F)cc(Cl)cc1F,,human,"oral, 1 mg, single ascending dose",,nervous system disorder TEAE,16.7%
COc1cc2c(Oc3ccc4[nH]c(C)cc4c3F)ccnc2cc1OCC1(N)CC1,,paediatric recurrent refractory sarcoma,8 mg,,grade 3 Neutropenia,0%
C[C@@H]1NC(=O)[C@H](CCCCNC(=O)CO/N=C/C(=O)NCCCC[C@@H]2NC(=O)[C@@H](Cc3ccccc3)NC(=O)[C@H](CC(=O)O)NC(=O)CNC(=O)[C@H](CCCNC(=N)N)NC2=O)NC(=O)CNC(=O)[C@@H]2CCCN2C(=O)[C@H](CCCCNC(=O)CO/N=C/C(=O)NCCCC[C@@H]2NC(=O)[C@@H](Cc3ccccc3)NC(=O)[C@H](CC(=O)O)NC(=O)CNC(=O)[C@H](CCCNC(=N)N)NC2=O)NC(=O)[C@H](CCCCNC(=O)CCNC(=O)CCNC(=O)CCNC(=O)[C@H](CCCCN)NC(=O)[C@H](Cc2ccccc2)NC(=O)CNC(=O)CN2CCCNCCNCCCNCC2)NC(=O)[C@H](CCCCNC(=O)CO/N=C/C(=O)NCCCC[C@@H]2NC(=O)[C@@H](Cc3ccccc3)NC(=O)[C@H](CC(=O)O)NC(=O)CNC(=O)[C@H](CCCNC(=N)N)NC2=O)NC(=O)CNC(=O)[C@@H]2CCCN2C(=O)[C@H](CCCCNC(=O)CO/N=C/C(=O)NCCCC[C@@H]2NC(=O)[C@@H](Cc3ccccc3)NC(=O)[C@H](CC(=O)O)NC(=O)CNC(=O)[C@H](CCCNC(=N)N)NC2=O)NC1=O [copper-64 labelled],biodistribution after PET,"mouse, U-87 MG tumour xenograft, blood","intravenous, 24 h",,tissue uptake,0.1 ± 0.02 %ID/g
CCc1ccc(CC/C=C/c2ccc3c(c2)C(=O)CC3)cc1,,"Sprague-Dawley rat, male","oral, 120 mg/kg/day, 14 days",,LDH serum activity,505 U/L
CO[C@H]1C[C@@H]2CC[C@@H](C)[C@@](O)(O2)C(=O)C(=O)N2CCCC[C@H]2C(=O)O[C@H]([C@H](C)C[C@@H]2CC[C@@H](OC(=O)NCCOCCOCCOCCOCCOCCOCCOCCOCCC(=O)N3CCc4cc(Cn5nc(-c6ccc7oc(N)nc7c6)c6c(N)ncnc65)ccc4C3)[C@H](OC)C2)C[C@@H](O)[C@H](C)/C=C(\C)[C@@H](O)[C@@H](OC)C(=O)[C@H](C)C[C@H](C)/C=C/C=C/C=C/1C,,patients with advanced solid tumours,"intravenous, dose not given, any grade",,incidence of Fatigue TEAE,57.9%
CN1CCN(c2cccc3c2CCN(C(=O)/C=C/c2c(-n4cnnn4)ccc(Cl)c2F)[C@@H]3C(=O)Nc2ccc(C(=O)O)cc2)C(=O)C1,,healthy human subjects,"intravenous infusion, 1.5 mg/h, 2 h",,deaths,0%
O=S(=O)(Nc1ccccc1)c1ccc(NC(=S)Nc2ccccc2)cc1,item: Glu,"male mouse, blood","oral, 80 mg/kg daily, 14 days",,blood chemistry level,209 mg/dL
C[C@@H]1OC(=O)NN=C1c1ccc(-c2ccc(F)cc2)c(C(F)(F)F)c1,"phase I trial, item: Nausea all grades",human patients,"dose not given, all dose groups",,patients with adverse event,40%
Cn1cncc1-c1c(F)cncc1NC(=O)c1c(N)nn2cc(F)cnc12,,human patients,"oral, 130 mg once daily",,grade ≥3 anaemia incidence,11%
CC(C)(C)c1cc(-n2nc3ccccc3n2)c(O)c(C(C)(C)C)c1,exposure assessment,"human, age 16-21 years","concentration not given, cream, 95th percentile",,"daily dermal uptake, percentile",4.33 ng/kg body weight/day
CCCCCOc1ccc(-c2ccc(-c3ccc(C(=O)N[C@H]4C[C@@H](O)[C@@H](OCC[N+](C)(C)C)NC(=O)[C@@H]5[C@@H](O)[C@@H](C)CN5C(=O)[C@H]([C@@H](C)O)NC(=O)[C@H]([C@H](O)[C@@H](O)c5ccc(O)cc5)NC(=O)[C@@H]5C[C@@H](O)CN5C(=O)[C@H]([C@@H](C)O)NC4=O)cc3)cc2)cc1,,"adult ICU patients, mITT, serum","dose not given, EOT",,potassium,4.2 mmol/L
CCC[C@@](N)(CO)CCc1ccc(OCCCCCC(C)C)cc1,,"hound dogs, male","intravenous, 0.25 mg/kg, geometric mean",,AUC(0-inf),0.48 µM·h
CC(C)(O)c1cc(Nc2cc(Oc3cn(C4CC4)nc3C3CCOCC3)ccn2)ccn1,Constipation,"advanced cancer patients, dose escalation","oral, dose not given, 2 weeks on/off, all causality grade ≥3",,treatment-emergent adverse events,3%
O=c1ccc2cc3ccoc3cc2o1,,rat plasma,"1000 ng/mL, 2 weeks, -70 °C, post-preparative stability",,accuracy,89.5%
O=C(Nc1ccccc1)C1CCN(C(=O)Oc2cccnc2)CC1,item: skin disorders,healthy women,"oral, 20 mg, 7 days",,subjects with adverse event,14.3%
N#C[C@@]1(n2ccc(N)nc2=O)O[C@H](CO)[C@@H](O)[C@H]1O,,"mouse CD-1, lung","oral, 30 mg/kg, 7 h",,lung concentration,1080 ng/g
CCCCCCCCCCCCCCCC(=O)N[C@@H](CCC(=O)NCCCC[C@H](NC(=O)[C@H](CC(=O)O)NC(=O)[C@H](CO)NC(=O)[C@@H](NC(=O)[C@H](Cc1ccccc1)NC(=O)[C@@H](NC(=O)CNC(=O)[C@H](CCC(N)=O)NC(=O)[C@H](CO)NC(=O)[C@@H](N)Cc1c[nH]cn1)[C@@H](C)O)[C@@H](C)O)C(=O)N[C@@H](CO)C(=O)N[C@@H](CCC(=O)O)C(=O)N[C@@H](Cc1ccc(O)cc1)C(=O)N[C@@H](CC(C)C)C(=O)N[C@@H](CC(=O)O)C(=O)N[C@@H](CO)C(=O)N[C@@H](CCC(=O)O)C(=O)N[C@@H](CCCNC(=N)N)C(=O)N[C@@H](C)C(=O)N[C@@H](CCCNC(=N)N)C(=O)N[C@@H](CC(=O)O)C(=O)N[C@@H](Cc1ccccc1)C(=O)N[C@H](C(=O)N[C@@H](C)C(=O)N[C@@H](Cc1c[nH]c2ccccc12)C(=O)N[C@@H](CC(C)C)C(=O)N[C@@H](CCC(=O)O)C(=O)N[C@@H](C)C(=O)NCC(=O)NCC(=O)O)C(C)C)C(=O)O,item: Dizziness,humans CrCl 20 to 30 mL/min,"subcutaneous, 100 µg single dose",,treatment-related adverse events,0%
CN1CC[C@@H](c2c(O)cc(O)c3c(=O)cc(-c4ccc(C(F)(F)F)cc4Cl)oc23)[C@@H]1CO,item: Anorexia,B-cell malignancies,"oral, 100 mg, intermittent dosing",,patients with adverse event,0%
O=C1Nc2cc3[nH]nc(-c4ccncc4)c3cc2CN1Cc1ccccc1,item: blurred vision,patients with advanced solid tumours,"intravenous, dose not given",,patients with TEAE,33%
COc1ccc(C(=O)Nc2ccc3c(c2)C=CCP(=O)(O)O3)cc1,HPLC-UV,50 mM PBS,"16 h, pH 7.4, 25 °C, upper limit 2.5 mg/mL",,kinetic solubility,2430 µg/mL
O=c1c2cc(Cl)c(CO)cc2[nH]c(=S)n1Cc1cccnc1,,"mouse, plasma","intravenous, dose not given",,volume of distribution at steady state,0.54 L/kg
Fc1ccc([C@@H]2CCNC[C@H]2COc2ccc3c(c2)OCO3)cc1,item: Bruxism,healthy volunteers,"oral, dose not given, given -1 h relative to LSD, with: LSD",direction not given,List of Complaints score,3 score
C[C@@H](NC(=O)N1C(=O)[C@H](Cc2ccnc(N)c2)[C@H]1C(=O)O)C1CCCCC1,,healthy adult Chinese volunteers,"continuous intravenous infusion, 0.3 mg/kg/h, 5-day infusion, CTCAE 5.0 grading",,incidence of injection site erythema swelling,0%
O=C(c1cc(Cc2n[nH]c(=O)c3ccccc23)ccc1F)N1CCN(C(=O)C2CC2)CC1,HPLC-MS/MS,"human patients, plasma","oral, 75 mg twice daily, MTD dose level, cycle 1 day 1, with: carboplatin target AUC 4",,AUC(0-12 h),16300 ng·h/mL
O.O.O.O.O.O.[Cl-].[Cl-].[Co+2],,"rat female, urine","oral, 10 mg/kg single, day 3",,cobalt in urine,247 µg/L
CC(C)[C@@H]1NC(=O)CNC(=O)[C@H](CC(N)=O)NC(=O)[C@H](CCCNC(=N)N)NC(=O)[C@H](Cc2ccc(O)cc2)NC(=O)[C@H](C(C)C)NC(=O)[C@@H](NC(=O)[C@@H](NC(=O)[C@H](CC(N)=O)NC(=O)[C@H](Cc2c[nH]c3ccccc23)NC(=O)[C@H](C)NC(=O)[C@H](Cc2ccccc2)NC(=O)CN)C(C)C)CSSC[C@@H](C(=O)N[C@@H](Cc2cnc[nH]2)C(=O)N[C@@H](CCCNC(=N)N)C(=O)N[C@@H](CCCNC(=N)N)C(=O)N[C@@H](C)C(=O)N[C@@H](CC(N)=O)C(N)=O)NC(=O)[C@H](C(C)C)NC(=O)[C@H](CCCNC(=N)N)NC1=O,,ICR mouse,"ip, 10 mg/kg",direction not given,spasm score,0
CCCC(=O)c1ccccc1,,,pH 7.4,,logD (chromatographic),5.51
CC(C)C[C@H](NC(=O)[C@H](CCCCN)NC(=O)OCC1c2ccccc2-c2ccccc21)C(=O)N[C@H](C(=O)N[C@@H](Cc1ccccc1)C(=O)N[C@@H](Cc1ccccc1)C(=O)N[C@@H](CCCCN)C(=O)NCC(=O)N[C@@H](Cc1ccccc1)C(=O)N[C@@H](C)C(=O)N[C@@H](Cc1c[nH]c2ccccc12)C(=O)N[C@@H](CC(N)=O)C(=O)N[C@H](C(=O)N[C@H]1CSSC[C@@H](C(=O)N[C@@H](Cc2c[nH]cn2)C(=O)N[C@@H](CCCNC(=N)N)C(=O)N[C@@H](CCCNC(=N)N)C(=O)N[C@@H](C)C(=O)N[C@@H](CC(N)=O)C(N)=O)NC(=O)[C@H](C(C)C)NC(=O)[C@H](CCCNC(=N)N)NC(=O)[C@H](C(C)C)NC(=O)CNC(=O)[C@H](CC(N)=O)NC(=O)[C@H](CCCNC(=N)N)NC(=O)[C@H](Cc2ccc(O)cc2)NC(=O)[C@H](C(C)C)NC1=O)C(C)C)C(C)C,,"ICR mouse, blood","intramammary, 10 mg/kg, day 5, 3 d dosing",,MCH,13.7 ± 0.15 pg
C[C@]1(CO)Cc2ncn(-c3ccc(C#N)c(Cl)c3)c2C(=O)O1,,"human, plasma","oral, 10 mg single dose, breakfast, high-fat, high-calorie, after",,AUC(0-inf) adjusted geometric mean,2.4 µM·h

# A few entries again:
SMILES,test,system,setting,scale,measurement,value
CCCCCCCCCCCCCCCC(=O)N[C@@H](CCC(=O)NCCCC[C@H](NC(=O)[C@H](CC(=O)O)NC(=O)[C@H](CO)NC(=O)[C@@H](NC(=O)[C@H](Cc1ccccc1)NC(=O)[C@@H](NC(=O)CNC(=O)[C@H](CCC(N)=O)NC(=O)[C@H](CO)NC(=O)[C@@H](N)Cc1c[nH]cn1)[C@@H](C)O)[C@@H](C)O)C(=O)N[C@@H](CO)C(=O)N[C@@H](CCC(=O)O)C(=O)N[C@@H](Cc1ccc(O)cc1)C(=O)N[C@@H](CC(C)C)C(=O)N[C@@H](CC(=O)O)C(=O)N[C@@H](CO)C(=O)N[C@@H](CCC(=O)O)C(=O)N[C@@H](CCCNC(=N)N)C(=O)N[C@@H](C)C(=O)N[C@@H](CCCNC(=N)N)C(=O)N[C@@H](CC(=O)O)C(=O)N[C@@H](Cc1ccccc1)C(=O)N[C@H](C(=O)N[C@@H](C)C(=O)N[C@@H](Cc1c[nH]c2ccccc12)C(=O)N[C@@H](CC(C)C)C(=O)N[C@@H](CCC(=O)O)C(=O)N[C@@H](C)C(=O)NCC(=O)NCC(=O)O)C(C)C)C(=O)O,item: Dizziness,humans CrCl 20 to 30 mL/min,"subcutaneous, 100 µg single dose",,treatment-related adverse events,0%
CN1CC[C@@H](c2c(O)cc(O)c3c(=O)cc(-c4ccc(C(F)(F)F)cc4Cl)oc23)[C@@H]1CO,item: Anorexia,B-cell malignancies,"oral, 100 mg, intermittent dosing",,patients with adverse event,0%
O=C1Nc2cc3[nH]nc(-c4ccncc4)c3cc2CN1Cc1ccccc1,item: blurred vision,patients with advanced solid tumours,"intravenous, dose not given",,patients with TEAE,33%
COc1ccc(C(=O)Nc2ccc3c(c2)C=CCP(=O)(O)O3)cc1,HPLC-UV,50 mM PBS,"16 h, pH 7.4, 25 °C, upper limit 2.5 mg/mL",,kinetic solubility,2430 µg/mL
O=c1c2cc(Cl)c(CO)cc2[nH]c(=S)n1Cc1cccnc1,,"mouse, plasma","intravenous, dose not given",,volume of distribution at steady state,0.54 L/kg
